Experimental data from different studies.
A part holds a random share of what one study measured.

Amino acid sequences for entries named in this document (tags omitted).
UniProt Q6P0Q8, whole entry: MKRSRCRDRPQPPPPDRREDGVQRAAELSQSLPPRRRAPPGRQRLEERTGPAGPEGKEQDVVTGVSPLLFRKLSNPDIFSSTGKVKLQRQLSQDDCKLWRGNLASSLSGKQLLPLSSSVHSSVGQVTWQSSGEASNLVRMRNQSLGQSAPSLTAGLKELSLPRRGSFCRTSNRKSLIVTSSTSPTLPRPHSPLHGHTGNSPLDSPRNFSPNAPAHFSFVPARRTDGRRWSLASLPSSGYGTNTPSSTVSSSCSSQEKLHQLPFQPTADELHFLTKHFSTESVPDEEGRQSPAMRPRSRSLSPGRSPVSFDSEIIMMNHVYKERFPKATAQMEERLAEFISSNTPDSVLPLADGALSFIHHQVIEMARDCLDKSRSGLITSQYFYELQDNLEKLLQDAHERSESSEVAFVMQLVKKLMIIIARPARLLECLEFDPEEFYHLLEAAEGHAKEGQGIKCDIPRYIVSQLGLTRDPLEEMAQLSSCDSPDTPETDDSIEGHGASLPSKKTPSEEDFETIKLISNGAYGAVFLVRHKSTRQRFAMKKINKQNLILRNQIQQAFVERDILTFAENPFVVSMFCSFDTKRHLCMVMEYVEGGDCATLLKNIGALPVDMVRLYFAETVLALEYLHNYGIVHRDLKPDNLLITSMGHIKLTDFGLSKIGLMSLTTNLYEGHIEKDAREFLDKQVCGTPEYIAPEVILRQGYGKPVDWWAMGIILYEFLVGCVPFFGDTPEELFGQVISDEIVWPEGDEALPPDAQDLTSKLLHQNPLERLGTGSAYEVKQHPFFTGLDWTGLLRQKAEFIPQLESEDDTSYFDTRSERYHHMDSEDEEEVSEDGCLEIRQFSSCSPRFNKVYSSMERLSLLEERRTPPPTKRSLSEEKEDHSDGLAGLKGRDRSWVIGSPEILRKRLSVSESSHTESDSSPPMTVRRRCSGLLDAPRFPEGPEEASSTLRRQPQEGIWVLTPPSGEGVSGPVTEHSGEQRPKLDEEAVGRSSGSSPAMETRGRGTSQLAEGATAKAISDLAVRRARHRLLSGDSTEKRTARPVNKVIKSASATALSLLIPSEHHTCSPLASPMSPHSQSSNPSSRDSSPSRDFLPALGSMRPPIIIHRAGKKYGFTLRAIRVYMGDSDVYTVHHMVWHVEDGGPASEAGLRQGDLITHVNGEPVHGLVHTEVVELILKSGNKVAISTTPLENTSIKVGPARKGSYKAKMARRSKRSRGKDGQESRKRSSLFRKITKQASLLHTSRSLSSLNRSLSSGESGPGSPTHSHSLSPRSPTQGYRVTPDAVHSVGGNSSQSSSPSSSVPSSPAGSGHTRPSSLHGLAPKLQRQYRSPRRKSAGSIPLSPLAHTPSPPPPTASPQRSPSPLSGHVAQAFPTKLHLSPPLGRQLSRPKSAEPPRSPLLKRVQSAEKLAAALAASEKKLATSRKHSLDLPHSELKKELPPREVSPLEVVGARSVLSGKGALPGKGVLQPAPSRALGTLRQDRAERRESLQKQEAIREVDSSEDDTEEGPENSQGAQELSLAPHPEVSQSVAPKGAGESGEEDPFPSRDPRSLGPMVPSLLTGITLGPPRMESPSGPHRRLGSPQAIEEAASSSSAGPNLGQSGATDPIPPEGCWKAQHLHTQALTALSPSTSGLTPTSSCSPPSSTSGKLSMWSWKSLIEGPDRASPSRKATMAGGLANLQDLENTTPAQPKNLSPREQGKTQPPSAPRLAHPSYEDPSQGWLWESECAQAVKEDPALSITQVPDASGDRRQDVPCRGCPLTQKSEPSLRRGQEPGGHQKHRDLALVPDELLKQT
UniProt O15197, whole entry, looked up: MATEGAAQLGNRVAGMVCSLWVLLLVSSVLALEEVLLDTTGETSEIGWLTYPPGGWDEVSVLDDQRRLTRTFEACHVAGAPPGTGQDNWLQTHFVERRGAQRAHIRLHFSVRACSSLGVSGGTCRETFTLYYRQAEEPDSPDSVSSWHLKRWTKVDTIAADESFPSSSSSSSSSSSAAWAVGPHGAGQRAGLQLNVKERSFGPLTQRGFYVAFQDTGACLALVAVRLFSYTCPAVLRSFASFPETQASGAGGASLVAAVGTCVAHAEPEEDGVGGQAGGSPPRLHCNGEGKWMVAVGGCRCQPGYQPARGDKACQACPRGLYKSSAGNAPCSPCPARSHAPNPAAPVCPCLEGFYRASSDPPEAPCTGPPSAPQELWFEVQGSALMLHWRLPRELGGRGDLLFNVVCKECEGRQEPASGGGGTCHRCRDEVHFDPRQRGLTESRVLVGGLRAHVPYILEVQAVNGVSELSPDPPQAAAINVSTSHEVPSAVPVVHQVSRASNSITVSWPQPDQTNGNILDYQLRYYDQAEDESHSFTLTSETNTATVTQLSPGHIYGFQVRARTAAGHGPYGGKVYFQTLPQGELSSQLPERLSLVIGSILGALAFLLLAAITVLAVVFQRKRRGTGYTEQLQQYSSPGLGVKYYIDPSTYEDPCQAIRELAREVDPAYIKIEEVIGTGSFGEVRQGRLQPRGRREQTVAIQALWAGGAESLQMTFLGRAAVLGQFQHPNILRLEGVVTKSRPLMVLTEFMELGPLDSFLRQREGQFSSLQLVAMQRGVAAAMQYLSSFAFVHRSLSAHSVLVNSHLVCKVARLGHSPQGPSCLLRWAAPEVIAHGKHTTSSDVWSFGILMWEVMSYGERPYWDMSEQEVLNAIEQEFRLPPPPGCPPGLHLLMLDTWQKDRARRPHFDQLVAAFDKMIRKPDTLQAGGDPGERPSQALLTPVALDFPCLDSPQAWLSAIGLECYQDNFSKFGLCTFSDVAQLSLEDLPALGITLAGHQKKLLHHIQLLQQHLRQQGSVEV
UniProt P07332, whole entry: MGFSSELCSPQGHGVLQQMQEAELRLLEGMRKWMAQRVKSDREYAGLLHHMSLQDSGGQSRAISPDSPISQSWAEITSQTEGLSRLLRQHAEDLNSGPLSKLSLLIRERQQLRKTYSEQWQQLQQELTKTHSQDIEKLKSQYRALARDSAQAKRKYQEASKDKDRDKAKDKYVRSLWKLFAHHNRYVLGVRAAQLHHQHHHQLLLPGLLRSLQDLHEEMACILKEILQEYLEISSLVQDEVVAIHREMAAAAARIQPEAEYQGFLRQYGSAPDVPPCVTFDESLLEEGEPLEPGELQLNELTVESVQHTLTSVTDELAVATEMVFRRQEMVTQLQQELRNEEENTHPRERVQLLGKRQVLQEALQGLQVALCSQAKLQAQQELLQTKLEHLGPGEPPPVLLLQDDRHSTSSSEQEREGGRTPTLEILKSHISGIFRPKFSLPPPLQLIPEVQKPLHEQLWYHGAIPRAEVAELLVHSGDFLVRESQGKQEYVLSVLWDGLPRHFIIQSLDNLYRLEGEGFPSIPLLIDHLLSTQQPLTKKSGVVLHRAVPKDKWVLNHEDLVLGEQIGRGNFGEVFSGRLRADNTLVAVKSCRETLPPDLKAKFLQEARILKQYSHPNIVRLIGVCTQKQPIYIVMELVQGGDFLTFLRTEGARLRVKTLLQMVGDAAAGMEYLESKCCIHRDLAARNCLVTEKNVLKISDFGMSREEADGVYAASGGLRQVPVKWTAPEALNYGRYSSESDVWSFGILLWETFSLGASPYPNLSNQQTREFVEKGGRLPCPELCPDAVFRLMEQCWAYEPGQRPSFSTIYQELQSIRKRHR
UniProt P04150, whole entry: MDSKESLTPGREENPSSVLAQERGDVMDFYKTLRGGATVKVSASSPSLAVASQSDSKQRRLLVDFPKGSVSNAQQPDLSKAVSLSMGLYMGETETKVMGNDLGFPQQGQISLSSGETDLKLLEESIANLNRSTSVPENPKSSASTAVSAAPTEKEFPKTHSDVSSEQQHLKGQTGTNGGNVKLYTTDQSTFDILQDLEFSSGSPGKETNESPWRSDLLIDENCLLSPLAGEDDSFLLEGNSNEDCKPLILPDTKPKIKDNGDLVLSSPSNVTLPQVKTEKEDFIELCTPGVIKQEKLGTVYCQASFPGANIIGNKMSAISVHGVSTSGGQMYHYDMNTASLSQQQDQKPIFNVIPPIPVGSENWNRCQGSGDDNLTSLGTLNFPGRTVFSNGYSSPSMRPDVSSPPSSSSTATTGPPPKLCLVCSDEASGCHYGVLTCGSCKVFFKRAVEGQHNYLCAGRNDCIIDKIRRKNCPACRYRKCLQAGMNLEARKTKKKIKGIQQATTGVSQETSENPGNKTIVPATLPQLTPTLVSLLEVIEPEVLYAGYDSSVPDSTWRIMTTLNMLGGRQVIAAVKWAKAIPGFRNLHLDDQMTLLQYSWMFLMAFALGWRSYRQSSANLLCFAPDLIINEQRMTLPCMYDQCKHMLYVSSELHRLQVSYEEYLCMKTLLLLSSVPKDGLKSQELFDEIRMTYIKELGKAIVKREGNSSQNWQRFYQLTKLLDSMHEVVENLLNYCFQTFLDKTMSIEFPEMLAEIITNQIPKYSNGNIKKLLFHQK
UniProt O14965, whole entry: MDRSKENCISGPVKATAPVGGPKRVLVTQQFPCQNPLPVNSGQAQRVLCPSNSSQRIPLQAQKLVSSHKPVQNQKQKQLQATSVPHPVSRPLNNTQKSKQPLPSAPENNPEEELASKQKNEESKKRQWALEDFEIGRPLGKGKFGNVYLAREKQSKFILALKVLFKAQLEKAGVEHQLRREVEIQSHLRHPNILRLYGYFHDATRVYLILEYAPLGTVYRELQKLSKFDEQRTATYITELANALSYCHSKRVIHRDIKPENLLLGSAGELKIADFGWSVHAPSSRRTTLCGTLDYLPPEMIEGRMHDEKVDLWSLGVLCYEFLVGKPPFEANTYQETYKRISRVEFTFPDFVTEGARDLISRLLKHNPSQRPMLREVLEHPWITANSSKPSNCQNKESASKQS

Study 1
SMILES: CCN1CCN(Cc2ccc(NC(=O)c3ccc(C)c(/C=C/c4cnc5[nH]ccc5c4OC)c3)cc2C(F)(F)F)CC1
Action: inhibitor
Medium: human cells
Tested at: 5 µM
target | method | baseline | log2 fold change
MAST2 (Homo sapiens, UniProt Q6P0Q8) | kinome profiling | vehicle | 0.167
Tyrosine-protein kinase Fgr, with CDC37 (FGR, Homo sapiens, UniProt P09769) | cell-based kinome screen | untreated | 0.082
Ephrin type-B receptor 6 (EPHB6, Homo sapiens, UniProt O15197) | cell-based kinome screen | untreated | -0.987
Tyrosine-protein kinase Fes/Fps, with CDC37 (FES, Homo sapiens, UniProt P07332) | cell-based kinome screen | untreated | 0.232

Other studies, line by line
NR3C1: Glucocorticoid receptor (NR3C1, Homo sapiens, UniProt P04150)
SMILES | tested on | test | setting | scale | quantity | value
C[C@@]12CC[C@@H]3[C@@H](CC[C@H]4C[C@@H](O)CC[C@]43C)[C@H]1CC[C@@H]2c1cc(C(F)(F)F)n[nH]1 | NR3C1 | nuclear translocation, agonist, enzyme fragment complementation | – | – | EC50 | > 9 µM
COc1cc(CC(=O)NCC(NC(=O)C(CCCNC(=O)c2cccc(I)c2)NC(=O)C(Cc2ccc(C(F)(F)P(=O)(O)O)cc2)NC(=O)c2ccc(C)c(Br)c2)C(N)=O)ccc1O (centres unmarked) | primary mouse hepatocytes | Western blot | 200 nM, together with: insulin 5 nM, 5 min | baseline: insulin alone | GSK-3β Ser9 phosphorylation | 2 fold
CC#C/C(=N\OC[C@H]1COCCN1)c1ccc2ncnc(Nc3ccc(OCc4cccc(F)c4)c(Cl)c3)c2c1 | Aurora kinase A (AURKA, Homo sapiens, UniProt O14965) | kinase activity | 10 µM | – | inhibition | 3.9%
C[C@@]12CC[C@H]3[C@@H](CC[C@H]4C[C@@H](O)CC[C@]43C)[C@H]1CC[C@@H]2C(=O)C[C@H](O)C(F)(F)F | NR3C1 | nuclear translocation, agonist, enzyme fragment complementation | – | – | EC50 | > 9 µM

For quick reference, copied from above (other studies, line by line):
SMILES | tested on | test | setting | scale | quantity | value
C[C@@]12CC[C@@H]3[C@@H](CC[C@H]4C[C@@H](O)CC[C@]43C)[C@H]1CC[C@@H]2c1cc(C(F)(F)F)n[nH]1 | NR3C1 | nuclear translocation, agonist, enzyme fragment complementation | – | – | EC50 | > 9 µM
